Published values collected from several papers.
Several values in a cell are separate wells, animals, samples, runs or records. Numbers after ± are the reported error.

Structure (SMILES) | test | test system | conditions | measurement | value
CCCc1c(-c2ccc(O)cc2)nn(-c2ccc(O)cc2)c1-c1ccc(O)cc1 | item: aglycone | rat, Long-Evans, female, ovariectomized, serum | subcutaneous, 2 mg/kg single dose | terminal half-life | 192 ± 54 min
O=C1c2ccccc2C(=O)N1CCCN1CCN(C(c2ccc(F)cc2)c2ccc(F)cc2)CC1 | – | male Sprague-Dawley rat, whole blood | oral, 10 mg/kg | terminal half-life | 509 ± 287 min
O=C1c2ccncc2C(=O)c2c1[nH]c1ccccc21 | – | Sprague-Dawley rat female, plasma | intravenous, 5 mg/kg | terminal half-life | 1460 ± 1280 min
N#CC(Cc1ccc(O)cc1)c1ccc(O)cc1 (stereo not shown) | item: aglycone | rat, Long-Evans, female, ovariectomized, serum | subcutaneous, 2 mg/kg single dose | terminal half-life | 276 ± 96 min
Cc1cc(-c2ccc3cc[nH]c(=O)c3c2)ccc1O[C@H]1O[C@H](CO)[C@@H](O)[C@H](O)[C@@H]1O | – | Sprague-Dawley rat, male, plasma | intravenous, 3 mg/kg | terminal half-life | 16.7 min and 17 min
CCc1c(-c2ccccc2)c(-c2ccccc2)nn1-c1ccccc1-c1cccc(OCC(=O)O)c1 | – | Sprague-Dawley rat | oral | terminal half-life | 197 min and 177 min and 180 min
CNC(=O)c1cccc(-c2ccc(O[C@H]3O[C@H](CO)[C@@H](O)[C@H](O)[C@@H]3O)c(C)c2)c1 | – | Sprague-Dawley rat, male, plasma | intravenous, 3 mg/kg | terminal half-life | 18.5 min and 18.1 min and 19.6 min
COc1cc2nccc(Oc3ccc(NC(=O)NC4CC4)c(Cl)c3)c2cc1C(N)=O | UPLC-MS/MS | Sprague-Dawley rat, male, plasma | oral, 10 mg/kg, 7 days, added: isavuconazole 20 mg/kg gavage | terminal half-life | 227 ± 89.4 min
CC[C@H](C)[C@H](NC(=O)[C@H](Cc1ccccc1)NC(=O)[C@H](CCC(=O)O)NC(=O)[C@H](CCCNC(=N)N)NC(=O)[C@H](C)NC(=O)[C@H](C)NC(=O)[C@H](CCC(N)=O)NC(=O)[C@H](CCC(=O)O)NC(=O)[C@H](CCC(=O)O)NC(=O)[C@H](CC(C)C)NC(=O)[C@H](Cc1ccc(O)cc1)NC(=O)[C@H](CO)NC(=O)[C@H](CO)NC(=O)[C@@H](NC(=O)[C@H](CC(=O)O)NC(=O)[C@H](CO)NC(=O)[C@@H](NC(=O)[C@H](Cc1ccccc1)NC(=O)[C@@H](NC(=O)CNC(=O)[C@H](CCC(=O)O)NC(=O)[C@H](C)NC(=O)CCc1c[nH]cn1)[C@@H](C)O)[C@@H](C)O)C(C)C)C(=O)N[C@@H](C)C(=O)N[C@@H](Cc1c[nH]c2ccccc12)C(=O)N[C@@H](CC(C)C)C(=O)N[C@H](C(=O)N[C@@H](CCCNC(=N)N)C(=O)NCC(=O)N[C@@H](CCCNC(=N)N)C(=O)N[C@@H](CCCCNC(=O)COCCOCCNC(=O)COCCOCCNC(=O)CC[C@H](NC(=O)CCCCCCCCCCCCCCCCC(=O)O)C(=O)O)C(=O)O)C(C)C | UPLC-MS | rat, plasma | subcutaneous, 20 nmol/kg | terminal elimination rate constant | 0.0532 h⁻¹
CNC(=O)c1cccc(-c2ccc([C@@H](O)[C@H]3O[C@H](CO)[C@@H](O)[C@H](O)[C@@H]3O)c(C)c2)c1 | – | male Sprague-Dawley rat, plasma | intravenous, 3 mg/kg, group mean | terminal half-life | 29.3 min

A few entries again:
Structure (SMILES) | test | test system | conditions | measurement | value
CCCc1c(-c2ccc(O)cc2)nn(-c2ccc(O)cc2)c1-c1ccc(O)cc1 | item: aglycone | rat, Long-Evans, female, ovariectomized, serum | subcutaneous, 2 mg/kg single dose | terminal half-life | 192 ± 54 min
